Results collected from several papers.

SMILES	assay	test system	setting	scale	Cmax
COc1ncc(-c2nc3c(n2C(C)C)[C@H](c2ccc(Cl)cc2)N(c2cc(Cl)cn(C)c2=O)C3=O)c(OC)n1	LC-MS/MS	human, plasma	oral, 4 mg, cycle 1 day 8, low-dose arm		24 ng/mL
CCN1CCN(Cc2ccc(Nc3ncc(F)c(-c4cc(F)c5nc6n(c5c4)[C@H](C)CCC6)n3)nc2)CC1		human, plasma	200 mg single dose, mean		131 ng/mL
CN1C(=O)[C@@H](NC(=O)c2nnc(Cc3ccccc3)[nH]2)COc2cccnc21		healthy human, fasted, plasma	oral, 400 mg single dose, geometric mean		4760 ng/mL
O=C(COc1ccc(Cl)cc1)NC12CC(c3nnc([C@H]4C[C@@H](OC(F)(F)F)C4)o3)(C1)C2		healthy human volunteers fasted, plasma	oral, 15 mg single dose, arithmetic mean		175 nM
CNC(=O)c1ccc(-c2cnc3ncc(Cc4ccc5ncccc5c4)n3n2)cc1F		human, healthy subjects, plasma	oral, 200 mg, covariate-adjusted geometric mean		1650 ng/mL
C=CCn1c(=O)c2cnc(Nc3ccc(N4CCN(C)CC4)cc3)nc2n1-c1cccc(C(C)(C)O)n1		human	oral, 150 mg twice daily, cycle 1 day 17, together with: durvalumab 1500 mg IV	geometric mean	680 nM
CC(C)[C@H](N)C(=O)NCCCS(=O)(=O)O		human, plasma	oral, 256.5 mg once daily days 8-14, day 14, fasted, capsule		6070 ng/mL
CO[C@H]1C[C@@H]2CC[C@@H](C)[C@@](O)(O2)C(=O)C(=O)N2CCCC[C@H]2C(=O)O[C@H]([C@H](C)C[C@@H]2CC[C@@H](OC(=O)NCCOCCOCCOCCOCCOCCOCCOCCOCCC(=O)N3CCc4cc(Cn5nc(-c6ccc7oc(N)nc7c6)c6c(N)ncnc65)ccc4C3)[C@H](OC)C2)C[C@@H](O)[C@H](C)/C=C(\C)[C@@H](O)[C@@H](OC)C(=O)[C@H](C)C[C@H](C)/C=C/C=C/C=C/1C		human, plasma	intravenous, 3 mg, cycle 1 day 1, arithmetic mean		56.8 ng/mL
C[C@@H]1CCO[C@H]2Cn3cc(C(=O)NCc4ccc(F)cc4F)c(=O)c(O)c3C(=O)N12		human, age ≥1 months, body weight 3 to <6 kg, plasma	oral, 10 mg, dispersible tablet, steady state		5950 ng/mL
CCn1cc(C(=O)N2CCOCC2)c(=O)c2cc(NC3Cc4ccccc4C3)cnc21		human, fasted	oral suspension, 2000 mg single dose, arithmetic mean		852 ng/mL

For quick reference, copied from above:
SMILES	assay	test system	setting	scale	Cmax
CCn1cc(C(=O)N2CCOCC2)c(=O)c2cc(NC3Cc4ccccc4C3)cnc21		human, fasted	oral suspension, 2000 mg single dose, arithmetic mean		852 ng/mL
